# Values quoted from earlier work as cited in several papers.
# ± marks the error that the study gave.
Structure (SMILES),cell line,assay,system,conditions,IC50 [µM]
CC(C)=CCc1c(O)cc(-c2cc3ccc(O)cc3o2)cc1O,HepG2,"mRNA level, down-regulation, refers to: PCSK9 mRNA",,,16.8
CC[C@H](C)[C@H](N)C(=O)N[C@H](C(=O)NCC(=O)N[C@@H](CC(C)C)C(=O)N[C@@H](CCSC)C(=O)N[C@H](C(=O)NCC(=O)NCC(=O)N[C@H](C(=O)N[C@H](C(=O)N[C@H](C(=O)N[C@@H](C)C(=O)O)[C@@H](C)CC)C(C)C)C(C)C)C(C)C)[C@@H](C)CC,"PC-12, differentiated","amyloid-β42 neurotoxicity, inhibitor, refers to: MTT reduction",,,14 ± 2
O=C(Oc1ccc(Br)cc1)[c-]1cccc1.[Fe+2].c1cc[cH-]c1,MCF-10A,cell growth,,,> 250
COC(=O)c1cc2c(C(F)(F)F)cc(-c3ccccc3)cc2n1O,A549,"cell growth, SRB",,"72 h, normoxia",44.1 ± 6.2
C=C(C)[C@H]1CC[C@@]2(C)CC[C@]3(C)C[C@H]4[C@@H](C)CC(=O)[C@H]4/C(C=O)=C\C[C@H]3[C@H]12,MCF7,,,,31
O=c1c2ccccc2[se]n1-c1ccccc1,Kupffer cells,superoxide generation,,,~10
CC(C)(O)c1cc2nn(CCS(C)(=O)=O)cc2cc1NC(=O)c1cccc(C(F)(F)F)n1,rat splenic cells,"TNF-alpha secretion, inhibitor",,"24 h, with: LPS 0.1 µg/mL",1.27
Nc1nc(N)c(CCCC(C(=O)C(F)(F)F)c2ccc(C(=O)N[C@@H](CCC(=O)O)C(=O)O)cc2)c(=O)[nH]1 (some centres unmarked),CCRF-CEM/MTX RFC-deficient,cell growth,,,> 100
CO[C@@H]1[C@H](OC(=O)NC(=O)CCl)CC[C@]2(CO2)[C@H]1[C@@]1(C)O[C@@H]1CC=C(C)C,HUVEC,cell proliferation,,,< 0.001
Cc1ccc(C(C)C)cc1.F[P-](F)(F)(F)(F)F.NCCN.[Cl][Ru+],A549,cell growth,,,7.1
CCOc1cc(C(C)(C)C)ccc1C1=N[C@@](C)(c2ccc(Cl)cc2)[C@@](C)(c2ccc(Cl)cc2)N1C(=O)N1CCN(CCCS(C)(=O)=O)CC1,TP53 wild-type cell lines,cell growth,,,0.44
COc1ccc(N(C)c2nc(C)nc3cc[nH]c23)cc1,MDA-MB-435,cell growth,,,0.096 ± 0.005
CC(C)C[C@H](NC(=O)[C@H](CCc1ccccc1)NC(=O)CN1CCOCC1)C(=O)N[C@@H](Cc1ccccc1)C(=O)N[C@@H](CC(C)C)C(=O)[C@@]1(C)CO1,HFF fibroblasts,cell growth,,,0.492
N=C(N)NCCC[C@H](NC(=O)[C@H](Cc1c[nH]c2ccccc12)NC(=O)[C@H](CCC(N)=O)NC(=O)[C@H](Cc1c[nH]c2ccccc12)NC(=O)[C@H](CCCNC(=N)N)NC(=O)[C@H](Cc1c[nH]c2ccccc12)NC(=O)[C@H](CCC(N)=O)NC(=O)[C@H](Cc1c[nH]c2ccccc12)NC(=O)[C@@H](N)CCCNC(=N)N)C(N)=O,Caco-2,cell growth,,,86
Nc1nc2[nH]c(CCCCCCCC(=O)N[C@@H](CCC(=O)O)C(=O)O)cc2c(=O)[nH]1,KB,"cell proliferation, inhibitor",,,0.0011 ± 0.00088
COC1=CC(=O)c2cc(-c3ccc(OC)c(O)c3)c3cc(O)c(OC)cc3c2C1=O,neutrophils,superoxide production,,with: fMLF,0.99
NC1=NN(c2ccc(Oc3ccccc3)c(S(=O)(=O)O)c2)C(=O)C1,AP-1-luc HEK293,"AP-1 luciferase reporter, inhibitor",,,< 1
C=C1C(=O)O[C@@H]2/C=C(/CO)C3=CC(=O)[C@@](C)(C[C@@H](OC(=O)/C(C)=C/C)[C@@H]12)O3,human neutrophils,"elastase release, inhibitor",,with: fMLF,16.8
COc1ccc(Sc2cc(OC)c(OC)c(OC)c2)cc1,MCF7,cell growth,,"96 h, 37 °C",0.016 ± 0.005
COc1c2occc2cc2ccc(=O)oc12,neuroblastoma cells,cell growth,,without photoactivation,56.3
Nc1nc2[nH]c(CCCc3ccc(C(=O)N[C@@H](CCC(=O)O)C(=O)O)s3)cc2c(=O)[nH]1,KB,"cell proliferation, inhibitor",,,0.00026 ± 3e-05
C=C1C(=O)O[C@H]2[C@H]1CC/C(C)=C/CC[C@@]1(C)O[C@@H]21,U-87 MG,"cell growth, inhibitor",,,8.8 ± 2.1
CC[C@@H](C(=O)[C@@H](C)[C@@H](O)[C@H](C)[C@@H]1O[C@@H]([C@@H](CC)C(=O)O)CC[C@@H]1C)[C@H]1O[C@]2(C=C[C@@H](O)[C@]3(CC[C@@](C)([C@H]4CC[C@](O)(CC)[C@H](C)O4)O3)O2)[C@H](C)C[C@@H]1C,HMLER-shEcad,mammosphere viability,,,18.5 ± 1.5
COc1ccc(CCN(C)C(=O)/C=C/c2ccc(O)cc2)cc1,neutrophils,superoxide production,,with: fMLF,12
Nc1nc2[nH]c(CCCc3ccc(C(=O)N[C@@H](CCC(=O)O)C(=O)O)s3)cc2c(=O)[nH]1,KB,cell growth,,without folic acid,0.00026
Nc1nc2[nH]c(CCCCCc3ccc(C(=O)N[C@@H](CCC(=O)O)C(=O)O)cc3)cc2c(=O)[nH]1,"CHO PC43-10, human RFC-expressing",cell growth,,,> 1
COC1=C(OC)[C@H](O)[C@H](C/C=C(\C)CC/C=C(\C)CCC=C(C)C)[C@@H](C)C1=O,HepG2,cell growth,10% FBS,72 h,4.3 ± 0.03
COc1ccc(N(C)c2nc(C)nc3[nH]ccc23)cc1,SK-OV-3,cell growth,,,0.278 ± 0.019
Cn1cnc2c(F)c(Nc3ccc(Br)cc3Cl)c(C(=O)NOCCO)cc21,solid tumour cell lines,"ERK1/2 phosphorylation, inhibitor",,,< 0.04
Cc1c(O)cc(C[C@]23C[C@H](C[C@H](C)O2)c2c4c(c(O)c(C)c2O3)CO[C@@]2(C4)C[C@@H](O)C[C@H](C)O2)c(C=O)c1O,A549,cell growth,,,22.3
Nc1nc2sc(CCCCc3ccc(C(=O)N[C@@H](CCC(=O)O)C(=O)O)cc3)cc2c(=O)[nH]1,KB,cell growth,,"96 h, with: folic acid 200 nM",> 1
Cc1ccc(C(=O)Nc2ccc(CN3CCN(C)CC3)c(C(F)(F)F)c2)cc1C#Cc1cnc2cccnn12,K562,,,,0.006
Cc1ccc2c(c1)C1(NN=C(c3ccccc3)S1)C(=O)N2 (centres unmarked),HepG2,fatty acid uptake,,,5.9
COc1c(O)ccc2c1cnc1c3cc4c(cc3ccc21)OCO4,human neutrophils,elastase release,,with: fMLF,6.3
C[C@@H]1CCCC(=O)N(C)/C=C/CC[C@@H](C)C(=O)O[C@@H](C(C)(C)C)C1,mouse cerebrocortical neurons,"Ca2+ oscillation, inhibitor",,,3.7
Nc1nc2[nH]c(CCCCCCc3ccc(C(=O)N[C@@H](CCC(=O)O)C(=O)O)cc3)cc2c(=O)[nH]1,RT16 (CHO expressing human FRα),"cell growth, inhibitor",,,0.162
O=CCc1ccc(O)c(O)c1,PC6-3,"cell viability, MTT",,2 h,~65
Cc1cc2ccc3c(c2cc1O)CCC(=O)C3(C)C,human neutrophils,elastase release,,with: fMLF,4.3
CCCS(=O)(=O)Nc1ccc(F)c(C(=O)c2c[nH]c3ncc(-c4ccc(Cl)cc4)cc23)c1F,BRAF V600E melanoma cell lines,cell growth,,,0.1 to 10
C=C(C)C(O)Cc1c(O)ccc2ccc(=O)oc12 (centres unmarked),neutrophils,superoxide production,,with: fMLF,2.2
CC(=O)N[C@H](CCNC(=O)c1cc(NC(=O)c2cc(NC(=O)c3cc(NC(=O)c4nccn4C)cn3C)cn2C)cn1C)C(=O)Nc1cn(C)c(C(=O)Nc2cc(C(=O)Nc3cc(C(=O)Nc4cc(C(=O)NCCCN(C)CCCN[14C](=O)c5cccc([14C](=O)O)c5)n(C)c4)n(C)c3)n(C)c2)n1,LNCaP,,,non-radioactive analogue,2.1
C[C@@]12CCC[C@@](C)(C(=O)O)[C@H]1CC[C@@]13C[C@@H](CC[C@H]12)[C@@](O)(CO)C3,human neutrophils,"calcium flux, inhibitor",,with: fMLF,~30
CC(C)C[C@H]1NC(=O)[C@H](CC(=O)O)NC(=O)CNC(=O)[C@H](CCCNC(=N)N)NC(=O)[C@H](C)NC1=O,WM-115,"cell adhesion, inhibitor",,with: immobilized CagL RAD mutant,0.91
CNC1=CC(=O)c2cc(C)ncc2C1=O,36 cancer cell lines,,,range,0.2 to 50
C/C(=C/Cc1c(O)cc2oc(C)cc(=O)c2c1O)CO,human neutrophils,elastase release,,with: fMLF,11.6
COc1ccc(Nc2nc(N)c(C(=O)c3ccccc3)s2)cc1,various cancer cell lines,cell growth,,,0.35
CN[C@H]1CN(c2ccc3c(=O)c(C(=O)O)cn(-c4nccs4)c3n2)C[C@@H]1OC,MV4-11,cell growth,,,0.1

# For quick reference, copied from above:
Structure (SMILES),cell line,assay,system,conditions,IC50 [µM]
Nc1nc(N)c(CCCC(C(=O)C(F)(F)F)c2ccc(C(=O)N[C@@H](CCC(=O)O)C(=O)O)cc2)c(=O)[nH]1 (some centres unmarked),CCRF-CEM/MTX RFC-deficient,cell growth,,,> 100
CO[C@@H]1[C@H](OC(=O)NC(=O)CCl)CC[C@]2(CO2)[C@H]1[C@@]1(C)O[C@@H]1CC=C(C)C,HUVEC,cell proliferation,,,< 0.001
Cc1ccc(C(C)C)cc1.F[P-](F)(F)(F)(F)F.NCCN.[Cl][Ru+],A549,cell growth,,,7.1
CCOc1cc(C(C)(C)C)ccc1C1=N[C@@](C)(c2ccc(Cl)cc2)[C@@](C)(c2ccc(Cl)cc2)N1C(=O)N1CCN(CCCS(C)(=O)=O)CC1,TP53 wild-type cell lines,cell growth,,,0.44
COc1ccc(N(C)c2nc(C)nc3cc[nH]c23)cc1,MDA-MB-435,cell growth,,,0.096 ± 0.005
CC(C)C[C@H](NC(=O)[C@H](CCc1ccccc1)NC(=O)CN1CCOCC1)C(=O)N[C@@H](Cc1ccccc1)C(=O)N[C@@H](CC(C)C)C(=O)[C@@]1(C)CO1,HFF fibroblasts,cell growth,,,0.492
N=C(N)NCCC[C@H](NC(=O)[C@H](Cc1c[nH]c2ccccc12)NC(=O)[C@H](CCC(N)=O)NC(=O)[C@H](Cc1c[nH]c2ccccc12)NC(=O)[C@H](CCCNC(=N)N)NC(=O)[C@H](Cc1c[nH]c2ccccc12)NC(=O)[C@H](CCC(N)=O)NC(=O)[C@H](Cc1c[nH]c2ccccc12)NC(=O)[C@@H](N)CCCNC(=N)N)C(N)=O,Caco-2,cell growth,,,86
